Measurements from different studies.
Compare with care: the assays were run in different laboratories.

| SMILES | target or system | assay | test system | conditions | how to read | quantity | result |
| --- | --- | --- | --- | --- | --- | --- | --- |
| COc1c(NC(=O)c2ccc(NC(=O)c3ccc(NC(=O)[C@H](Cc4c[nH]nn4)NC(=O)c4ccc(NC(=O)/C(C)=C/c5ccc(O)cc5)cc4)cc3)cc2)ccc(C(=O)O)c1O | Enterococcus faecium | broth microdilution | ciprofloxacin-sensitive | – | – | MIC | 16 µg/mL |
| CC[C@H](C)[C@@H]1NC(=O)[C@H](CCC(=O)O)NC(=O)[C@@H]2CSSC[C@@H]3NC(=O)[C@H](Cc4ccc(O)cc4)NC(=O)[C@@H](NC(=O)[C@@H](NC(=O)[C@H](C)N)[C@@H](C)O)CSSC[C@@H](C(=O)N[C@@H](CCCNC(=N)N)C(=O)O)NC(=O)[C@H](CSSC[C@H](NC(=O)[C@H](CCCNC(=N)N)NC(=O)CNC(=O)[C@H]([C@@H](C)O)NC(=O)[C@H](CCCNC(=N)N)NC3=O)C(=O)N[C@@H](C)C(=O)N[C@@H]([C@@H](C)O)C(=O)N[C@@H](CCCNC(=N)N)C(=O)N[C@@H](CCC(=O)O)C(=O)N[C@@H](CO)C(=O)N[C@@H](CC(C)C)C(=O)N[C@@H](CO)C(=O)NCC(=O)N[C@@H](C(C)C)C(=O)N2)NC(=O)[C@H](CC(C)C)NC(=O)[C@H](CCCNC(=N)N)NC(=O)[C@H](Cc2ccc(O)cc2)NC(=O)[C@H](CC(C)C)NC(=O)[C@H](CCCNC(=N)N)NC(=O)CNC(=O)[C@H](CO)NC1=O | Enterococcus faecium | broth turbidity | 475747 | – | – | MIC | 11.2 µg/mL |
| C=CCO/N=C(\C(=O)N[C@@H]1C(=O)N(OS(=O)(=O)O)C1(C)C)c1csc(N)n1 | Enterobacter cloacae | agar dilution | CDC 1000654 | – | – | MIC | 8 µg/mL |
| COCOC[C@H]1O[C@H](O[C@H]2[C@H](O[C@@H]3O[C@H](CO)[C@@H](O[C@H]4O[C@@H](CN)[C@@H](O)[C@H](O)[C@H]4N)[C@H]3O)[C@@H](O)[C@H](N)C[C@@H]2N)[C@H](N)[C@@H](O)[C@@H]1O | Mycolicibacterium smegmatis | microbial growth, broth dilution | – | 72 h | – | MIC | 128 µg/mL |
| CC1(C)[C@H](NC(=O)/C(=N\OC2(C(=O)O)CCCCC2)c2csc(N)n2)C(=O)N1OS(=O)(=O)O | Enterobacter cloacae | agar dilution | CDC 1000654 | – | – | MIC | 16 µg/mL |
| CC1C=CC=CC(C)C2C=CC3CC(C)(O)C(Cl)C(C)C3C2C(=O)C(Cl)(Cl)C(=O)C(C)C(=O)O1 (stereo not drawn) | Staphylococcus aureus | – | MRSA clinical isolate | OXA CLI ERY resistant | – | MIC | 0.05 µg/mL |
| COc1c(NC(=O)c2ccc(NC(=O)c3ccc(NC(=O)[C@H](CC#N)NC(=O)c4ccc(NC(=O)/C(C)=C/c5ccc(O)cc5)cc4)cc3)c(OC)c2O)ccc(C(=O)O)c1O | Enterococcus faecium | broth microdilution | ciprofloxacin-resistant | – | – | MIC | 16 µg/mL |
| COc1cccc(OC)c1C(=O)N[C@@H]1C(=O)N2[C@@H]1SC(C)(C)[C@@H]2C(=O)O | Staphylococcus epidermidis | microbial growth, broth dilution | 12228 | – | – | MIC | 4 µM |
| CC[C@H](C)[C@@H]1NC(=O)[C@@H]([C@@H](C)O)NC(=O)CNC(=O)[C@H](CC(=O)O)NC(=O)CNC(=O)[C@H](CC(=O)O)NC(=O)CNC(=O)[C@H]2CCCCN2C(=O)[C@@H](NC(=O)[C@H](CC(=O)O)NC(=O)/C=C/CCCCCCCCCC(C)C)CNC(=O)[C@@H]2CCCN2C1=O | Staphylococcus aureus | broth microdilution | MRSA USA300, Mueller-Hinton broth, Mg2+ 10 mg/L | 16 h, 37 °C, together with: Ca2+ 5 mM | – | MIC | 4 µg/mL |
| CC1(C)C(NC(=O)C(=NOCC(=O)N2CC3CCCC3C2C(=O)O)c2csc(N)n2)C(=O)N1OS(=O)(=O)O (stereo not drawn) | Enterobacter cloacae | agar dilution | CDC 1000654 | – | – | MIC | > 64 µg/mL |
| Cc1ncsc1-c1ccc(C(C)NC(=O)C2CC(O)CN2C(=O)C(NC(=O)CCCCCCCCCCN2CCCC(Nc3ncc(Cl)c(Nc4ccccc4S(=O)(=O)C(C)C)n3)C2)C(C)(C)C)cc1 (stereo not drawn) | 22Rv1 | RNA-seq, measured: ZNF473 mRNA | – | concentration not given | baseline: DMSO | log2 fold change | -1.15 |
| Cc1c(CN(C)C(=O)/C=C/c2cnc3c(c2)CC(N)C(=O)N3)oc2ccccc12 (stereo not drawn) | Klebsiella pneumoniae | broth microdilution | AR-0139 | – | – | MIC | 16 µg/mL |
| CO[C@H]1/C=C/O[C@@]2(C)Oc3c(C)c(O)c4c(c3C2=O)C2=NC3(CCN(CC(C)C)CC3)NC2=C(NC(=O)/C(C)=C\C=C\[C@H](C)[C@H](O)[C@@H](C)[C@@H](O)[C@@H](C)[C@H](OC(=O)c2ccccc2)[C@@H]1C)C4=O | Mycobacteroides abscessus | – | clinical isolate Bamboo | – | 90% growth inhibition | MIC | 0.065 µM |
| COc1nc(C(=O)Nc2ccc(C(=O)O)c(O)c2OC)ccc1NC(=O)c1ccc(NC(=O)[C@H](Cc2c[nH]nn2)NC(=O)c2ccc(NC(=O)/C(C)=C/c3ccc(O)cc3)cc2)cc1 | Enterococcus faecium | broth microdilution | ciprofloxacin-sensitive | – | – | MIC | 0.25 µg/mL |
| CCCCO[C@H]1[C@H](O)[C@@H](N)[C@@H](O[C@H]2[C@H](O[C@@H]3O[C@H](CO)[C@@H](O[C@H]4O[C@@H](CN)[C@@H](O)[C@H](O)[C@H]4N)[C@H]3O)[C@@H](O)[C@H](N)C[C@@H]2N)O[C@@H]1CO | Mycolicibacterium smegmatis | microbial growth, broth dilution | – | 72 h | – | MIC | 8 to 16 µg/mL |
| COc1c(NC(=O)c2ccc(NC(=O)[C@H](Cc3c[nH]nn3)NC(=O)c3ccc(NC(=O)/C(C)=C/c4ccc(O)cc4)cc3)cc2)ccc(C(=O)Nc2ccc(C(=O)O)cc2)c1O | Enterococcus faecium | broth microdilution | ciprofloxacin-sensitive | – | – | MIC | 4 µg/mL |
| COC(=O)CNC(=O)c1ccc(NC(=O)c2[nH]c(C)c(Cl)c2Cl)c(N2CCN(C(=O)OC(C)(C)C)CC2)c1 | Enterococcus faecium | microbial growth, broth dilution | ATCC35667 | – | – | MIC | > 32 µg/mL |

| SMILES | target or system | assay | test system | conditions | how to read | quantity | result |
| --- | --- | --- | --- | --- | --- | --- | --- |
| CC1(C)C(NC(=O)C(=NOC2(C(=O)O)CC2)c2csc(N)n2)C(=O)N1OS(=O)(=O)O (stereo not drawn) | Klebsiella pneumoniae | agar dilution | 16-14, ESBL-producing | – | – | MIC | 0.06 µg/mL |
| COc1c(NC(=O)c2ccc(NC(=O)c3ccc(NC(=O)[C@H](Cc4c[nH]nn4)NC(=O)c4ccc(NC(=O)/C(C)=C/c5ccc(O)cc5)cc4)cc3)c(OC)c2O)ccc(C(=O)O)c1O | Salmonella enterica | microbial growth, broth dilution | – | – | – | MIC | 0.25 µg/mL |
| C=CCO[C@H]1[C@H](O)[C@@H](N)[C@@H](O[C@H]2[C@H](O[C@@H]3O[C@H](CO)[C@@H](O[C@H]4O[C@@H](CN)[C@@H](O)[C@H](O)[C@H]4N)[C@H]3O)[C@@H](O)[C@H](N)C[C@@H]2N)O[C@@H]1CO | Mycolicibacterium smegmatis | microbial growth, broth dilution | – | 72 h | – | MIC | 16 µg/mL |
| C#CCO/N=C(\C(=O)N[C@@H]1C(=O)N(OS(=O)(=O)O)C1(C)C)c1nsc(N)n1 | Enterobacter cloacae | agar dilution | CDC 1000654 | – | – | MIC | > 64 µg/mL |
| C[C@@H]1C(=O)O[C@@H](C)/C=C/C=C\[C@@H](C)[C@@H]2C=C[C@@H]3C[C@@]4(C)O[C@H]4[C@@H](C)[C@H]3[C@@H]2C(=O)C(Cl)(Cl)C1=O | Staphylococcus aureus | – | MRSA clinical isolate | resistant: OXA,CLI,DOX,ERY,GEN,SXT,TET | – | MIC | 0.1 µg/mL |
| NC[C@@H]1O[C@H](O[C@H]2[C@@H](O)[C@H](O[C@@H]3[C@@H](O)[C@H](N)C[C@H](N)[C@H]3O[C@H]3O[C@H](CO)[C@@H](OCCO)[C@H](O)[C@H]3N)O[C@@H]2CO)[C@H](N)[C@@H](O)[C@@H]1O | Mycolicibacterium smegmatis | microbial growth, broth dilution | – | 72 h | – | MIC | 2 µg/mL |
| COc1cc(C(=O)Nc2ccc(C(=O)O)c(O)c2)ccc1NC(=O)c1ccc(NC(=O)[C@H](Cc2c[nH]nn2)NC(=O)c2ccc(NC(=O)/C(C)=C/c3ccc(O)cc3)cc2)cc1 | Enterococcus faecium | broth microdilution | ciprofloxacin-sensitive | – | – | MIC | 8 µg/mL |
| CC1(C)[C@H](NC(=O)/C(=N\OC2(C(=O)O)CC2)c2nsc(N)n2)C(=O)N1OS(=O)(=O)O | Enterobacter cloacae | agar dilution | CDC 1000654 | – | – | MIC | 64 µg/mL |
| COC1C=COC2(C)Oc3c(C)c(O)c4c(c3C2=O)C2=NC3(CCN(CC(C)C)CC3)NC2=C(NC(=O)C(C)=CC=CC(C)C(O)C(C)C(O)C(C)C(OC(=O)c2cncnc2)C1C)C4=O (stereo not drawn) | Mycobacteroides abscessus | – | ATCC 19977 | single-strain MIC | – | MIC | 43.7 µg/mL |
| COc1cc(C(=O)O)ccc1NC(=O)c1ccc(NC(=O)c2ccc(NC(=O)[C@H](Cc3c[nH]nn3)NC(=O)c3ccc(NC(=O)/C(C)=C/c4ccc(O)cc4)cc3)cc2)c(OC)c1O | Enterococcus faecium | broth microdilution | ciprofloxacin-sensitive | – | – | MIC | 4 µg/mL |
| CC1(C)[C@H](NC(=O)/C(=N\OC2(C(=O)O)CCCC2)c2csc(N)n2)C(=O)N1OS(=O)(=O)O | Enterobacter cloacae | agar dilution | ATCC 43560, susceptible | – | – | MIC | 0.5 µg/mL |
| CN[C@H](CC(C)C)C(=O)N[C@H]1C(=O)N[C@@H](CC(N)=O)C(=O)N[C@H]2C(=O)N[C@H]3C(=O)N[C@H](C(=O)N[C@H](C(=O)O)c4cc(O)cc(O)c4-c4cc3ccc4O)[C@H](O)c3ccc(c(Cl)c3)Oc3cc2cc(c3O[C@@H]2O[C@H](CO)[C@@H](O)[C@H](O)[C@H]2O[C@H]2C[C@](C)(NCc3ccc(-c4ccc(Cl)cc4)cc3)[C@H](O)[C@H](C)O2)Oc2ccc(cc2Cl)[C@H]1O | Enterococcus faecium | – | VanA VRE ATCC BAA-2317 | no LTA | – | MIC | 2.5 µg/mL |
| C=C(NC(=O)c1csc(-c2nc3c(cc2O)-c2nc(cs2)C(=O)NC(C(C)O)C(=O)NC(=C(C)OC)c2nc(cs2)C(=O)NC2c4nc(cs4)C(=O)NC(COC(=O)c4c5c6c(cccc6n4O)COC(=O)C(OC4CC(C)(O)C(N(C)C)C(C)O4)C2OC5)c2nc-3cs2)n1)C(N)=O (stereo not drawn) | Enterococcus faecium | – | -30, vancomycin-intermediate | – | – | MIC | 0.078 µg/mL |
| C/C(=C\c1ccc(O)cc1)C(=O)Nc1ccc(C(=O)N[C@@H](Cc2c[nH]nn2)C(=O)Nc2ccc(C(=O)Nc3ccc(C(=O)Nc4ccc(C(=O)O)c(O)c4)c(O)c3)cc2)cc1 | Enterococcus faecium | broth microdilution | ciprofloxacin-sensitive | – | – | MIC | 16 µg/mL |
| CC1(C)[C@H](NC(=O)/C(=N\OCC(=O)N2CCC(C(=O)O)C2)c2nsc(N)n2)C(=O)N1OS(=O)(=O)O (stereo partly drawn) | Enterobacter cloacae | agar dilution | ATCC 43560, susceptible | – | – | MIC | 2 µg/mL |
| CCCCCCCCCCCCCCCCCCn1cc(CN(CCC(=O)NCCN(CCC(=O)NCCN(CCC(=O)NCCN(C)C)CCC(=O)NCCN(C)C)CCC(=O)NCCN(CCC(=O)NCCN(C)C)CCC(=O)NCCN(C)C)CCC(=O)NCCN(CCC(=O)NCCN(CCC(=O)NCCN(C)C)CCC(=O)NCCN(C)C)CCC(=O)NCCN(CCC(=O)NCCN(C)C)CCC(=O)NCCN(C)C)nn1 | Enterobacter cloacae | broth microdilution | 119, LB broth | 18 h | – | MIC | > 96 µg/mL |
